# Measured values from different studies.
# Each line is one published result; not all experiments were run side by side. ± gives the spread as reported.
SMILES,cell line,read-out,technique,tested at,time,setting,CC50
CC1(C)C(=O)C(=C(O)C=Cc2ccccc2)C(=O)C2=C1OC1(CC2)CCC2CC1C2(C)C (stereo not shown),HEp-2,cell growth or viability,,,,,> 50 µM
Cc1ccc(CN2CCC(Nc3nc(Oc4c(C)cc(C#N)cc4C)c4ccccc4n3)CC2)cc1,TZM-bl,cell growth or viability,XTT,,,,> 0.261 µM
Nc1ccn([C@@H]2O[C@H](CO)[C@@H](O)[C@H]2F)c(=O)n1,SNB-78,cell growth or viability,SRB,,11 days,,> 250 µM
C/C=C/CNC(=N)NCCCCCCCCN1CCCc2cc(Cl)ccc2COc2ccccc2CNC(=N)NC1=O,normal human dermal fibroblasts,,MTT,,24 h,,38.5 ± 2.18 µg/mL
Cc1nc([C@@H](NC(=O)c2ccc(-c3ccc(Cl)cc3)[nH]2)[C@@H]2CCCCN2)sc1CO,TZM-bl,cell growth or viability,XTT,,,,~28 µM
C=C1CCC2Cc3c(c(C)c(O)c(C(=O)C=Cc4ccccc4)c3OC)OC2(C)CCC2C1CC2(C)C (stereo not shown),HEp-2,cell growth or viability,,,,,> 50 µM
OC[C@H]1O[C@@H](n2cnc3c(O)ncnc32)[C@H](F)[C@@H]1O,SNB-78,cell growth or viability,SRB,,11 days,,> 250 µM
Cc1cc(C#N)cc(C)c1Oc1nc(NC2CCN(Cc3ccc(S(C)(=O)=O)cc3)CC2)nc2cccnc12,TZM-bl,cell growth or viability,XTT,,,,43.3 µM
C#CCO[C@H]1C[C@H]2[C@@H](C)C[C@H]3OC(=O)C(=C)[C@H]3C[C@]2(C)[C@H]1O,BALB/c mouse splenocytes,,propidium iodide flow cytometry,,48 h,10% fetal calf serum,181 µM
O=c1ccn([C@@H]2O[C@H](CO)[C@@H](O)[C@H]2F)c(=O)[nH]1,SkMC,,sulforhodamine B,,11 days,glucose medium,> 250 µM
C=C1CCC2Cc3c(O)c(C(=O)C=Cc4ccccc4)c(OC)c(C)c3OC2(C)CCC2C1CC2(C)C (stereo not shown),HEp-2,cell growth or viability,,,,,> 50 µM
COc1cc2nc(NC3CCN(Cc4ccc(S(C)(=O)=O)cc4)CC3)nc(Oc3c(C)cc(C#N)cc3C)c2cc1OC,TZM-bl,cell growth or viability,XTT,,,,9.14 µM
Nc1ncnc2c1ncn2[C@@H]1O[C@H](CO)[C@@H](O)[C@H]1F,SNB-78,cell growth or viability,SRB,,11 days,,108 µM
Cc1cc(/C=C/C#N)cc(C)c1Oc1nc(NC2CCN(Cc3ccc(S(C)(=O)=O)cc3)CC2)nc2ccccc12,TZM-bl,cell growth or viability,XTT,,,,33.1 µM
C/C=C/CNC(=N)NCCCCCCCCN1CCCc2ccc(F)cc2COc2ccccc2CNC(=N)NC1=O,normal human dermal fibroblasts,,MTT,,24 h,,> 100 µg/mL
Cc1ccc(S(=O)(=O)Nn2c3c(cc(-c4nc5ccccc5s4)c2=O)CCCCCC3)cc1,HEp-2,cell growth or viability,trypan blue,,,,330 µg/mL
CC1CCC2C1C1C(CCC23CCC2=C(O3)C(C)(C)C(=O)C(=C(O)C=Cc3ccccc3)C2=O)C1(C)C (stereo not shown),HEp-2,cell growth or viability,,,,,> 50 µM
Cc1cc(OCc2nnc(SC3CCCC3)n2-c2cccnc2)ccc1-c1ccc(S(C)(=O)=O)cc1,human foreskin fibroblasts,,MTS,,6 days,,4 µM
Cc1ccc2c(c1)C(C(C)C)CCC21CCC2=C(O1)C(C)(C)C(=O)C(=C(O)C=Cc1ccccc1)C2=O (stereo not shown),HEp-2,cell growth or viability,,,,,> 50 µM
C=C1C(=O)O[C@@H]2C[C@H](C)[C@@H]3C[C@H](O)[C@H](O)[C@@]3(C)C[C@H]12,BALB/c mouse splenocytes,,propidium iodide flow cytometry,,48 h,10% fetal calf serum,29.4 µM
Cc1cc(C#N)cc(C)c1Oc1nc(NC2CCN(Cc3ccc(C(N)=O)cc3)CC2)nc2ncccc12,TZM-bl,cell growth or viability,XTT,,,,44.1 µM
C=C1CCC2CC3=C(OC2(C)CCC2C1CC2(C)C)C(C)(C)C(=O)C(=C(O)C=Cc1ccccc1)C3=O (stereo not shown),HEp-2,cell growth or viability,,,,,> 50 µM
COc1cc2nc(NC3CCN(Cc4ccc(S(N)(=O)=O)cc4)CC3)nc(Oc3c(C)cc(C#N)cc3C)c2cc1OC,TZM-bl,cell growth or viability,XTT,,,,8.79 µM
CC(C)C1CCC(C)C23CC4CC5=C(OC4(C)C2C13)C(C)(C)C(=O)C(=C(O)C=Cc1ccccc1)C5=O (stereo not shown),HEp-2,cell growth or viability,,,,,> 50 µM
Cc1cc(C#N)cc(C)c1Oc1nc(NC2CCN(Cc3ccccc3Br)CC2)nc2ccccc12,TZM-bl,cell growth or viability,XTT,,,,> 0.231 µM
C#CCO[C@H]1C[C@H]2[C@@H](C)C[C@H]3OC(=O)C(=C)[C@H]3C[C@]2(C)[C@H]1OCC#C,BALB/c mouse splenocytes,,propidium iodide flow cytometry,,48 h,10% fetal calf serum,93.5 µM
Cc1cc(/C=C/C#N)cc(C)c1Oc1nc(NC2CCN(Cc3ccc(S(C)(=O)=O)cc3)CC2)nc2ncccc12,TZM-bl,,XTT,up to 30 µg/mL,,,not toxic
CC1(C)C(=O)C(=C(O)C=Cc2ccccc2)C(=O)C2=C1OC1(C)C(C2)CC2CC1C2(C)C (stereo not shown),HEp-2,cell growth or viability,,,,,> 50 µM

# Excerpt of the above:
SMILES,cell line,read-out,technique,tested at,time,setting,CC50
Nc1ccn([C@@H]2O[C@H](CO)[C@@H](O)[C@H]2F)c(=O)n1,SNB-78,cell growth or viability,SRB,,11 days,,> 250 µM
C/C=C/CNC(=N)NCCCCCCCCN1CCCc2cc(Cl)ccc2COc2ccccc2CNC(=N)NC1=O,normal human dermal fibroblasts,,MTT,,24 h,,38.5 ± 2.18 µg/mL
Cc1nc([C@@H](NC(=O)c2ccc(-c3ccc(Cl)cc3)[nH]2)[C@@H]2CCCCN2)sc1CO,TZM-bl,cell growth or viability,XTT,,,,~28 µM
